Assay results gathered from unrelated publications.
Numbered parts are unrelated; each lists some results of a single study.
UniProt P49137, sequence (whole entry, looked up): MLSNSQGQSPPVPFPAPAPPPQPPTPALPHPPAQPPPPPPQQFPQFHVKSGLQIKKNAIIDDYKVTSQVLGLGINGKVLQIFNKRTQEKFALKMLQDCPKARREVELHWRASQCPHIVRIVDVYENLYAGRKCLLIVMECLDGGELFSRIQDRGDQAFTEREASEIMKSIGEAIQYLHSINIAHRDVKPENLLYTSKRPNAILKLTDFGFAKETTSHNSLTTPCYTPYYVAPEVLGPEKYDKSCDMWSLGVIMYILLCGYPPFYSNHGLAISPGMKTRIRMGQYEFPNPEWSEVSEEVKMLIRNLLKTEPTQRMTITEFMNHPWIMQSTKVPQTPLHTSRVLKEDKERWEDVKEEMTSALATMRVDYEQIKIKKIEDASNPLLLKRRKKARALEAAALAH
UniProt P36896, sequence (whole entry, looked up): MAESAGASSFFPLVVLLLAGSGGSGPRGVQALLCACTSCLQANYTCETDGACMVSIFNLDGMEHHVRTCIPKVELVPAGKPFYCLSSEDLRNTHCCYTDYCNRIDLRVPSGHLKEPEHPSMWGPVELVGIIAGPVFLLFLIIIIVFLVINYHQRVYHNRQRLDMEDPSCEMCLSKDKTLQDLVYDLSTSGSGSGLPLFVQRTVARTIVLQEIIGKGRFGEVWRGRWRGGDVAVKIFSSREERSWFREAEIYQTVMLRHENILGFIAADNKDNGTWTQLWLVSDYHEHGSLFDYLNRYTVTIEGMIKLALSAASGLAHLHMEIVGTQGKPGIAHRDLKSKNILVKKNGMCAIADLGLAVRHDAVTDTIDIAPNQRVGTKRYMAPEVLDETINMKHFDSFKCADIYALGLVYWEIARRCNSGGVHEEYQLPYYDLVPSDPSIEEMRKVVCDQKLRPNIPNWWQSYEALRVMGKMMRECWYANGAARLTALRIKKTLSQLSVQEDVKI
UniProt Q8TDR2, sequence (whole entry, looked up): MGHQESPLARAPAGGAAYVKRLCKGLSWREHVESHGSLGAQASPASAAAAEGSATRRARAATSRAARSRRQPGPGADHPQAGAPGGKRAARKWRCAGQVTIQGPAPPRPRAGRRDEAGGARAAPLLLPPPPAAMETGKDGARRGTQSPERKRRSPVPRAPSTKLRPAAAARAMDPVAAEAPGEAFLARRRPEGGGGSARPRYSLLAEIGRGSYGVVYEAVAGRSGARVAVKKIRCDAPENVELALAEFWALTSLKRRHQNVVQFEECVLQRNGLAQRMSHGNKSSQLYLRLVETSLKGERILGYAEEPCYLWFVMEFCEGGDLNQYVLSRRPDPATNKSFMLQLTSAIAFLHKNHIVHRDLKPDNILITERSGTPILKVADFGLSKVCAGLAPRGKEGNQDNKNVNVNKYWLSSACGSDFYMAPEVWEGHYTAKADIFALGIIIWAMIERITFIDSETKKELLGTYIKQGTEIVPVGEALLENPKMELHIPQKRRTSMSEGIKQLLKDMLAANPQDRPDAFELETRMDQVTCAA
UniProt P29320, sequence (whole entry, looked up): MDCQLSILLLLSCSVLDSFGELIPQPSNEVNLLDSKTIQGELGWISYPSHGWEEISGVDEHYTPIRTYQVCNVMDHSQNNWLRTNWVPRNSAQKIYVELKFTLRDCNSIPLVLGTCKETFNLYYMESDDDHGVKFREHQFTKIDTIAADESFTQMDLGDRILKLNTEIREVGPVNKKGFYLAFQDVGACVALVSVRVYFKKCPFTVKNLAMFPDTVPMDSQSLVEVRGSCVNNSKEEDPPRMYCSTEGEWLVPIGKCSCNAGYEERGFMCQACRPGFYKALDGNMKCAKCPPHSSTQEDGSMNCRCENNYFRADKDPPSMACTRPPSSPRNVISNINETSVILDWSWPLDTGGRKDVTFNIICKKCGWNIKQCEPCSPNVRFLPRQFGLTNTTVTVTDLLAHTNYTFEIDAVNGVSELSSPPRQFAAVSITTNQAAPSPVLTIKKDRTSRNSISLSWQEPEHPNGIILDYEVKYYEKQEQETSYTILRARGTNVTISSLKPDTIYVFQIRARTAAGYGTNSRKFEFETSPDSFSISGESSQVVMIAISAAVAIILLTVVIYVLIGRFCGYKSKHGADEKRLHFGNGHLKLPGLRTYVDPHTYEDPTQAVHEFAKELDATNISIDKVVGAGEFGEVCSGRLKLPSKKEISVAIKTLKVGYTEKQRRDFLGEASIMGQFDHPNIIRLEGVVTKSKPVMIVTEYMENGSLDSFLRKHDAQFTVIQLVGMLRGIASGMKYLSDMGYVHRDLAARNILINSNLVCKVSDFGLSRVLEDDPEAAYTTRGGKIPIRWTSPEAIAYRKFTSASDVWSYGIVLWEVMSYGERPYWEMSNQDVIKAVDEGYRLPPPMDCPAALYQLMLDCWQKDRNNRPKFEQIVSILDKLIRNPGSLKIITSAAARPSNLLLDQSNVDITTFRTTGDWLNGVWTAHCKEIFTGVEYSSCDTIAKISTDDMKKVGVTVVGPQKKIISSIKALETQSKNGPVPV
UniProt Q6P2M8, sequence (whole entry, looked up): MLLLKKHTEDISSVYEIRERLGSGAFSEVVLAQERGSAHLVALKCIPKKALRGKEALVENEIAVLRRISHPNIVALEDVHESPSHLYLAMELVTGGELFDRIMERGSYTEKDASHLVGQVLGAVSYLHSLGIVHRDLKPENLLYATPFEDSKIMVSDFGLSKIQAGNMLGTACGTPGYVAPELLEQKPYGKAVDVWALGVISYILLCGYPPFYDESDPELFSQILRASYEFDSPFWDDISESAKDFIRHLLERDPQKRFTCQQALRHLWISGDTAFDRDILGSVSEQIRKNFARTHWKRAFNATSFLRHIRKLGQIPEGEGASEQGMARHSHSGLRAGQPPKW
UniProt P47898, sequence (whole entry, looked up): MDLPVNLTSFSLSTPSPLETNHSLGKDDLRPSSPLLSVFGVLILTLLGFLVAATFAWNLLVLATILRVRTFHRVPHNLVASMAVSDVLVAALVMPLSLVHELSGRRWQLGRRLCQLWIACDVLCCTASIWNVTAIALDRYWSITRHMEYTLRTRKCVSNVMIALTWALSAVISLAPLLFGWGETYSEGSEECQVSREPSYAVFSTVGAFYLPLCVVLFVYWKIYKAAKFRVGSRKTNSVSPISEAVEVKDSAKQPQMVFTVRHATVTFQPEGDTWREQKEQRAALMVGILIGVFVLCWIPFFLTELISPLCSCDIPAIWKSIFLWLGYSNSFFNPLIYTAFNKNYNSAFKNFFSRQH
UniProt Q9HC98, sequence (whole entry, looked up): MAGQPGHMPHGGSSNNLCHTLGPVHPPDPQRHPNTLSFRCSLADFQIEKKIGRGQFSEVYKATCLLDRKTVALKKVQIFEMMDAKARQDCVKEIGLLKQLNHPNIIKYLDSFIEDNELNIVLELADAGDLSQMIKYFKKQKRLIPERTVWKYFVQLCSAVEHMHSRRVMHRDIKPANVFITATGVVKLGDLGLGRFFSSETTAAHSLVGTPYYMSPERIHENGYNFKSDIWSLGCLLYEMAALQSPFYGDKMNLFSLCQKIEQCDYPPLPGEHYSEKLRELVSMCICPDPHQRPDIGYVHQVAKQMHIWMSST
UniProt P53667, sequence (whole entry, looked up): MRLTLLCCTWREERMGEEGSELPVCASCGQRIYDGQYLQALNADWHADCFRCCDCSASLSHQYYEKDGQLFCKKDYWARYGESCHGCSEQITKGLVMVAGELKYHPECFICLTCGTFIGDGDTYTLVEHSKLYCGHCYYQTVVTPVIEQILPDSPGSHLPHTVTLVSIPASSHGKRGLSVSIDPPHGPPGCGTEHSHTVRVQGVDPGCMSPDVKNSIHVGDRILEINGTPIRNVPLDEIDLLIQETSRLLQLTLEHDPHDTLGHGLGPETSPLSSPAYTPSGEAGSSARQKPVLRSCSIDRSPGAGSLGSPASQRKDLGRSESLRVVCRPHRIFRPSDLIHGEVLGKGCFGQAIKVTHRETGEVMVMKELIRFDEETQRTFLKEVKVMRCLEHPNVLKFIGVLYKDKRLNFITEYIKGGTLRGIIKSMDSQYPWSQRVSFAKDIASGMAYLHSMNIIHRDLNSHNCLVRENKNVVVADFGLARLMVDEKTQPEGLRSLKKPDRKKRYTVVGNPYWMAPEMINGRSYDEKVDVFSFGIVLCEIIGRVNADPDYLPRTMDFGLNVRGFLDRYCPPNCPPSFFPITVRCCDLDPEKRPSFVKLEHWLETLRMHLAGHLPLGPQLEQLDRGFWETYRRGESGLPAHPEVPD
UniProt Q9Y6M4, sequence (whole entry, looked up): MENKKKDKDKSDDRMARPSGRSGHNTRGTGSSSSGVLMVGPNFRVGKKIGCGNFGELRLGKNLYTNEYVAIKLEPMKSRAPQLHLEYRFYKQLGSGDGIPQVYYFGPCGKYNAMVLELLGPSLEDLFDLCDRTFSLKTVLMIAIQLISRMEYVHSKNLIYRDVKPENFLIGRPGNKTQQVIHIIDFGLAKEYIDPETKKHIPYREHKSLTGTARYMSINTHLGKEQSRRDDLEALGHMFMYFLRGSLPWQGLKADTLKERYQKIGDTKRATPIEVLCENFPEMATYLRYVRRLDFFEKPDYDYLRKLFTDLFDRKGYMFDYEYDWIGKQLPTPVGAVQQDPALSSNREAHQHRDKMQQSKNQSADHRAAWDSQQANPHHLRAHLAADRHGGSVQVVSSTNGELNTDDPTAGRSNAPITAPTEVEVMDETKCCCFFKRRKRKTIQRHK
UniProt O94768, sequence (whole entry, looked up): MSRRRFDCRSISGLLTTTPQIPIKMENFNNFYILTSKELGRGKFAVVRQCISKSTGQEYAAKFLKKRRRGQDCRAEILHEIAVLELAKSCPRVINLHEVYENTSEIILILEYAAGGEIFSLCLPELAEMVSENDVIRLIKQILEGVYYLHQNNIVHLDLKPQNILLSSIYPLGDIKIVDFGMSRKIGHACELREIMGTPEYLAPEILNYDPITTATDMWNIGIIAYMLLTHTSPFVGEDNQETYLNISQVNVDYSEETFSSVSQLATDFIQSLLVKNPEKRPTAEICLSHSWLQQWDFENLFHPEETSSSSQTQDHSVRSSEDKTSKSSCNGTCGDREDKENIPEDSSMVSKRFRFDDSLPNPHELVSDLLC

Sample 1 — cell line: HaCaT; tested at: 100 µM; time: 60 h; measurement: viability
O=C1CN2Cc3c(ccc(Cl)c3Cl)N=C2N1: 131%
NC[C@H]1O[C@H](O[C@H]2[C@H](O)[C@@H](O[C@H]3O[C@H](CO)[C@@H](O)[C@H](N)[C@H]3O)[C@H](N)C[C@@H]2N)[C@H](O)[C@@H](O)[C@@H]1O: 148%
CC(C)[C@H]1CC[C@H](C(=O)N[C@H](Cc2ccccc2)C(=O)O)CC1: 119%
NC(=O)N1c2ccccc2CC(=O)c2ccccc21: 34.8%
CCc1nn(CCCN2CCN(c3cccc(Cl)c3)CC2)c(=O)n1CCOc1ccccc1: 16.2%

Sample 2 — Compound: CC(=O)c1ccc(N2CCOCC2)cc1O; read-out: enzyme activity; action: inhibitor; tested at: 0.5 µM; relative to: control; measurement: remaining activity
CSNK1G3 (Homo sapiens, UniProt Q9Y6M4): 101%
MST1R (Homo sapiens, UniProt Q04912): 104%
MAP3K5 (Homo sapiens, UniProt Q99683): 99.4%
TBK1 (Homo sapiens, UniProt Q9UHD2): 99%
CSNK1G2 (Homo sapiens, UniProt P78368): 102%
MAP2K2 (Homo sapiens, UniProt P36507): 99.8%
ACVR1B (Homo sapiens, UniProt P36896): 100%
RPS6KA2 (Homo sapiens, UniProt Q15349): 98.6%
EPHA3 (Homo sapiens, UniProt P29320): 108%
NEK6 (Homo sapiens, UniProt Q9HC98): 96.5%
FGFR3 (Homo sapiens, UniProt P22607): 105%
MAPKAPK2 (Homo sapiens, UniProt P49137): 103%
LCK (Homo sapiens, UniProt P06239): 100%

Sample 3 — tested at: 1 µM; measurement: remaining binding
SMILES: COc1ccc2[nH]c3c4[nH]c5ccc(OC)cc5c4c4c(c3c2c1)C(=O)NC4=O
ACVR2A (Homo sapiens, UniProt P27037); binding, competition with immobilised ligand: 58%
PNCK (Homo sapiens, UniProt Q6P2M8); binding: 78%
STK35 (Homo sapiens, UniProt Q8TDR2); binding, competition with immobilised ligand: 80%
STK17B (Homo sapiens, UniProt O94768); binding: 2.2%
LIM domain kinase 1 (LIMK1, Homo sapiens, UniProt P53667); binding, competition with immobilised ligand: 91%
Non-receptor tyrosine-protein kinase TYK2, JH1 (TYK2, Homo sapiens, UniProt P29597); cell-free assay, competition with immobilised ligand: 87%

Single results of other studies
CC1=C(C#N)[C@@H](c2ccc3[nH]nc(C)c3c2)C(C#N)=C(c2ccc(Cl)cc2)N1  inhibition (HTR5A (Homo sapiens, UniProt P47898); ligand displacement; 10 µM): 4.53%
O=C(NCc1ncc(C(F)(F)F)cc1Cl)c1ccc2c(c1)C1(CCS(=O)(=O)CC1)[C@H](C1CC1)N2S(=O)(=O)c1ccc(F)cc1  viability (sample G normal colon organoids; CellTiter-Glo; human patient-derived organoids; 0.1 µM, 4 days; relative to: DMSO control): 96.8%

For quick reference, copied from above (sample 2):
MAP3K5 (Homo sapiens, UniProt Q99683): 99.4%
LCK (Homo sapiens, UniProt P06239): 100%
MAPKAPK2 (Homo sapiens, UniProt P49137): 103%
EPHA3 (Homo sapiens, UniProt P29320): 108%
